Published values of several laboratories.
Compare with care: the assays were run in different laboratories. ± gives the spread as reported. In brackets after ≈: the same amount, converted by molar mass.

| SMILES | assay | system | setting | how to read | measurement | value |
| --- | --- | --- | --- | --- | --- | --- |
| Cc1c(P(=S)(c2ccccc2)c2ccccc2)n2ccccc2[n+]1C/C=C/c1ccccc1 |  | mouse, plasma | intraperitoneal, 10 mg/kg, 12 h |  | plasma concentration | 58 ng/mL |
| CCn1c2ccccc2c2cc(C(O)c3cccc4ncccc34)ccc21 (stereo not drawn) |  | CD1 mice | intraperitoneal, 4 weeks, once daily 5 days/week |  | maximum tolerated dose | 20 mg/kg |
| O[C@H]1CCCN[C@@H]1CCCn1cnc2c(Cl)c(Cl)ccc21 |  | healthy volunteers, urine | oral, 100 mg capsule single, geometric mean |  | renal clearance (0-72 h) | 262 mL/min |
| CCCCCOc1ccc(-c2ccc(-c3ccc(C(=O)N[C@H]4C[C@@H](O)[C@@H](OCC[N+](C)(C)C)NC(=O)[C@@H]5[C@@H](O)[C@@H](C)CN5C(=O)[C@H]([C@@H](C)O)NC(=O)[C@H]([C@H](O)[C@@H](O)c5ccc(O)cc5)NC(=O)[C@@H]5C[C@@H](O)CN5C(=O)[C@H]([C@@H](C)O)NC4=O)cc3)cc2)cc1 |  | healthy adult human, plasma | subcutaneous, 10 mg |  | AUC(0-t) | 34000 ng·h/mL |
| CN1CCC(Nc2ncc3ncnc(Nc4ccc(F)c(Cl)c4)c3n2)CC1 |  | cynomolgus monkey male, hepatic S9 | 1 µM, pH 7.4, with: without NADPH |  | CLint | 209 ± 19.6 mL/min/kg |
| Cc1cnc(C(=O)N[C@H]2CCCCC/C=C\[C@@H]3C[C@@]3(C(=O)NS(=O)(=O)C3CC3)NC(=O)[C@@H]3C[C@@H](Oc4nc5ccccc5c5ccccc45)CN3C2=O)cn1 |  | healthy human volunteers, plasma | oral, dose not given, with: rosuvastatin plus 2D regimen |  | AUC(0-24) | 2450 ng·h/mL |
| CN[C@@](C)(C[18F])C(=O)O |  | SCID mouse SK-OV-3 xenograft, muscle | 120 min, post injection |  | tissue uptake | 0.7 ± 0.2 %ID/g |
| CC[C@H](C)[C@H](NC(=O)[C@H](C)NC(=O)[C@H](CCCCN)NC(=O)[C@H](CO)NC(=O)[C@H](CCC(=O)O)NC(=O)[C@@H]1CCCN1C(C)=O)C(=O)N[C@@H](CCCCN)C(=O)N[C@@]1(C)CCCC=CCCC[C@@](C)(C(=O)N[C@H](C(=O)N[C@@H](CO)C(=O)N[C@@H](CCCCN)C(=O)N[C@@H](CCC(=O)O)C(=O)N[C@@H](CCCNC(=N)N)C(=O)N[C@@H](CO)C(=O)N[C@@H](CCCCN)C(=O)N[C@@H](CCCNC(=N)N)C(=O)N[C@@H](CO)C(=O)N2CCC[C@H]2C(N)=O)C(C)C)NC(=O)[C@H](CCCCN)NC(=O)[C@H](CC(C)C)NC(=O)[C@H](CC(C)C)NC1=O | TEM | PBS | 200 µM, pH 7.4 |  | particle diameter | ~11 nm |
| CCCCCOc1ccc(-c2ccc(-c3ccc(C(=O)N[C@H]4C[C@@H](O)[C@@H](O)NC(=O)[C@@H]5[C@@H](O)[C@@H](C)CN5C(=O)[C@H]([C@@H](C)O)NC(=O)[C@H]([C@H](O)[C@@H](O)c5ccc(O)cc5)NC(=O)[C@@H]5C[C@@H](O)CN5C(=O)[C@H]([C@@H](C)O)NC4=O)cc3)cc2)cc1 | population PK model | patients, typical weight sample D kg | intravenous, dose not given |  | peripheral volume of distribution | 22.4 L |
| [123I]c1cncc(OC[C@@H]2CCN2)c1 | SPECT | human, fusiform gyrus | intravenous bolus, 9.1 mCi | baseline: tissue over plasma | tissue/plasma ratio | 11.1 |
| COc1ccc(-c2cc(=O)c3c(OC)c(OC)c(OC)c(OC)c3o2)cc1OC |  | C57BL/6 mouse, male, kidney | oral, 1% w/w in diet, 6 weeks, orange peel extract diet | baseline: content in orange peel | tissue to peel content ratio | 0.021% |
| CCCCCCCC[N+](C)(C)Cc1ccccc1 | in vitro-in vivo extrapolation | human |  |  | hepatic clearance | 9.45 mL/h/g liver |
| CNC(=O)c1ccc(-c2cnn3ccc(C(=O)N(C)c4ccc(Cl)c(C(=O)OC)c4)cc23)cc1 |  | neonatal calf, uninfected healthy, plasma | oral, 10 mg/kg, 0 to 12 h |  | AUC(0-t) | 0.33 µM·h |
| CCCCCOc1ccc(-c2cc(-c3ccc(C(=O)N[C@H]4C[C@@H](O)[C@@H](O)NC(=O)[C@@H]5[C@@H](O)[C@@H](C)CN5C(=O)[C@H]([C@H](O)CC(N)=O)NC(=O)[C@H]([C@H](O)[C@@H](O)c5ccc(O)c(OS(=O)(=O)O)c5)NC(=O)[C@@H]5C[C@@H](O)CN5C(=O)[C@H]([C@@H](C)O)NC4=O)cc3)no2)cc1 |  | preterm neonates ≥1000 g, plasma | intravenous, 15 mg/kg/day, repeated dosing, mean |  | AUC(0-24) | 472000 ng·h/mL |
| CC[C@H](C)[C@H](NC(=O)[C@@H](N)CCCNC(=N)N)C(=O)N[C@H](C(=O)N1CCC[C@H]1C(=O)N[C@@H](C)C(N)=O)C(C)C |  | healthy volunteers, both sexes, plasma | intravenous infusion, 6.5 mg/kg daily, day 7, multiple ascending dose |  | AUC(0-t) | 2110 ± 413 ng·h/mL |
| CC(=O)N[C@@H](Cc1ccc(O)cc1)C(=O)N[C@@H](C)C(=O)N[C@@H](CCC(=O)O)C(=O)N[C@@H](C)C(=O)N[C@@H](C)C(=O)N[C@@H](CCCCN)C(=O)N[C@@H](C)C(=O)N[C@@H](C)C(=O)N[C@@H](CCC(=O)O)C(=O)N[C@@H](C)C(=O)N[C@@H](C)C(=O)N[C@@H](CCCCN)C(=O)N[C@@H](C)C(=O)N[C@@H](C)C(=O)N[C@@H](CCC(=O)O)C(=O)N[C@@H](C)C(=O)N[C@@H](C)C(=O)N[C@@H](CCCCN)C(=O)N[C@@H](C)C(=O)N[C@@H](C)C(=O)N[C@@H](CCC(=O)O)C(=O)N[C@@H](C)C(=O)N[C@@H](C)C(=O)N[C@@H](CCCCN)C(=O)N[C@@H](C)C(=O)N[C@@H](Cc1ccccc1)C(N)=O | CD at 222 nm | potassium phosphate buffer | 40 µM, pH 7.0, no lipid |  | mean residue ellipticity | -20100 deg cm² dmol⁻¹ |
| COc1cc2cc(-c3ccc(CC(=O)Nc4cc(C(C)(C)C(F)(F)F)no4)cn3)cnc2cc1OC | CPK increase or myositis | human patients | oral, dose not given, with dose interruption |  | time to resolution | < 2 weeks |
| C[N+](C)(C)[C@@H](Cc1c[nH]c(=S)[nH]1)C(=O)[O-] |  | rat treated with 1,25-dihydroxyvitamin D3, lungs | intravenous | baseline: untreated control rats | decrease in tissue partition coefficient | 32.7% |
| CC(=O)N[C@H](C(=O)N[C@@H](CO)C(=O)N[C@@H](CCCNC(=N)N)C(=O)N[C@@H](CCCNC(=N)N)C(=O)N[C@@H](CCCNC(=N)N)C(N)=O)C(C)C |  | healthy adults | intravenous infusion, 1 mg/kg every 6 h, over 30 min, minimum among subjects | baseline: dose 13 over dose 1 | AUC(tau) accumulation ratio | 0.9 |
| CC(=O)CO |  | human skin ex vivo | 500 µL infinite dose, 5% m/V, ethanol/water vehicle |  | steady-state flux | 170 ± 45.1 µg/cm²/h |
| N[C@@H](CC(=O)O)C(=O)N[C@@H](CCC(=O)O)C(=O)NCC(=O)N1CCC[C@H]1C(=O)O |  | ICR mouse, tail bleeding | oral, 450 µmol/kg | baseline: vehicle | spleen index | no effect |
| N.N.[Cl][Pt][Cl] |  | patients advanced solid tumours | day 1 dosing, with: eribulin mesylate 1.2 mg/m^2 |  | maximum tolerated dose | 75 mg/m² |
| CSCC[C@@H]1NC(=O)[C@H](CC(=O)O)NC(=O)CNC(=O)[C@H](CCCNC(=N)N)NC(=O)[C@H](C)NC(=O)[C@H](CCC(=O)O)NC(=O)[C@H](CCCNC(=N)N)NC(=O)[C@@H]2CSSC[C@@H]3NC(=O)[C@H](CO)NC(=O)[C@H]([C@@H](C)O)NC(=O)[C@@H]4CCCN4C(=O)[C@H](C)NC(=O)[C@H](Cc4c[nH]c5ccccc45)NC(=O)[C@H](CC(=O)O)NC(=O)CNC(=O)[C@H](CCCNC(=N)N)NC(=O)CNC(=O)[C@H](CCC(N)=O)NC(=O)[C@@H]4CCCN4C(=O)[C@@H](NC(=O)CNC(=O)C(C)F)CSSC[C@H](NC(=O)CNC(=O)[C@H](C)NC(=O)[C@H](CC(C)C)NC(=O)[C@H](CSSC[C@@H](C(=O)NCC(N)=O)NC(=O)[C@H]([C@@H](C)O)NC(=O)[C@H](CCCNC(=N)N)NC(=O)[C@@H]4CCCN4C1=O)NC(=O)[C@H](CC(=O)O)NC(=O)[C@H](CO)NC(=O)[C@H](CC(=O)O)NC(=O)[C@H](CCC(N)=O)NC(=O)[C@H](CO)NC3=O)C(=O)N[C@@H](C(C)C)C(=O)N2 (stereo partly drawn) [fluorine-18 labelled] |  | nude mice U-87 MG xenograft, tumor | intravenous, 2.5 h |  | tissue uptake | 1.02 ± 0.19 %ID/g |
| CC1(C)S[C@@H]2[C@H](NC(=O)[C@H](C(=O)O)c3ccsc3)C(=O)N2[C@H]1C(=O)O |  | rat plasma | 2400 ng/mL, -20 °C to room temperature, three freeze-thaw cycles |  | measured concentration | 2439 ± 10 ng/mL |
| N.O=C(O)C(F)(OC(F)(F)C(F)(F)C(F)(F)F)C(F)(F)F (stereo not drawn) | LC-MS | C57BL/6J mice, male, plasma | oral, 2 mg/L in drinking water, 12 weeks |  | plasma concentration | 100 ± 40 ng/mL |
| NC(=O)c1nc(F)c[nH]c1=O | UV-Vis spectrophotometry | supercritical CO2 | 120 min, 338 K, 12 MPa, 384.17 kg/m^3 |  | solubility | 4 µg/mL (≈ 25.5 µM) |
| CCOC(=O)c1cncn1C1(c2ccccc2)CC1 | serum corticosterone, inhibitor | Sprague-Dawley rat | intravenous, 15 min, 50% reduction, with: ACTH1-24 |  | ID50 | 2 ± 0.2 mg/kg |
